Measured values collected from several papers.
Values joined by “and” are separate records of one study, mostly repeats; a detail may differ. ± gives the spread as reported. In brackets after ≈: the same amount, converted by molar mass.

Cc1cn(-c2cc(NC(=O)c3ccc(C)c(Nc4nccc(-c5cccnc5)n4)c3)cc(C(F)(F)F)c2)cn1  ADAS-Cog maze time change (human patients; dose not given, 12 months vs baseline, unit not given; baseline: placebo): 1.65
Cc1nc(Nc2ccc(CC(=O)O)cc2)nc(Nc2ccc(F)c(C(F)(F)F)c2)c1C  brown adipose lipid droplet size (C57BL/6J mouse, high-fat diet MASH model; intraperitoneal, 0.3 mg/kg daily, 60% fat diet for 12 weeks, dosed final four weeks; baseline: untreated): decreased
CC(C)C[C@H](NC(=O)[C@H](CCC1CCCCC1)NC(=O)[C@@H]1CCCN1C(=O)c1ccc(F)cc1)C(=O)NC(C)(C)C(=O)N[C@@H](CC(C)C)C(=O)N[C@@H](CC(C)C)C(=O)NC(C)(C)C(=O)NC(C)(C)C(=O)NCCC(=O)NC1(CN(C)C)CCC1  leakage (negatively charged GUVs; 1 µM): > 90%
Nc1nc(N)c2nc(-c3ccccc3)c(N)nc2n1  IC50 (Plasmodium falciparum; 7G8): 12.6 µM
C[C@]1(CO)Cc2ncn(-c3ccc(C#N)c(Cl)c3)c2C(=O)O1  urinary sodium excretion 0-24 h (Japanese subjects; 3 mg single dose): 110 mmol
O=S(=O)(NCCNC/C=C/c1ccc(Br)cc1)c1cccc2cnccc12  embryos reaching 4-cell (mouse zygotes; 20 µM, 72 h post-hCG): 26.3%
Cn1ncc(-c2nc(N[C@H]3CC[C@H](N)CC3)ncc2Cl)c1CC1CC1  median duration of response (phase I clinical trial; R/R AML or high-risk MDS patients; dose not given): 1.9 months
COc1cc(Br)cc(Br)c1Oc1cc(Br)cc(Br)c1O  Vmax/Km (sulfonation; human liver cytosol): 37.3 ± 2.14 µL/min/mg
N#CC(=Cc1ccccc1)C(N)=O  β-elimination rate constant (pH 7.4): > 0.69 min⁻¹
C[C@H]1O[C@@H](O[C@H]2CC[C@@]3(C)[C@@H](CC[C@]4(C)[C@@H]3C=C[C@]35OC[C@@]6(CCC(C)(C)C[C@H]63)[C@@H](O)C[C@]54C)[C@]2(C)CO)[C@H](O)[C@@H](O[C@@H]2O[C@H](CO)[C@@H](O)[C@H](O)[C@H]2O)[C@H]1O  mRNA level (refers to: FAS; ethanol-fed mice, hepatic SIRT1 knockdown (AAV8-TBG-SIRT1), liver; dose not given, high dose, unit not given; baseline: AAV8-TBG-Null ethanol group): 1.25 and 0.98 and 0.86 and 0.88 and 1 and 0.83
CC1=C(O)C(=O)C=C2C1=CC=C1[C@@]2(C)CC[C@@]2(C)[C@@H]3C[C@](C)(C(=O)O)CC[C@]3(C)CC[C@]12C  spasm frequency (video-EEG; Sprague-Dawley rat pups, multiple-hit infantile spasms model; i.p., 2 mg/kg, 2 to 4 h, CELA-2 arm; baseline: vehicle): decreased
C[C@]1(O)CC[C@@]2(C)[C@@H](CC[C@@H]3[C@@H]2CC[C@]2(C)[C@@H]([N+](=O)[O-])CC[C@@H]32)C1  seizure protection (male NIH Swiss mice; i.p., dose not given, 15 min before test, pentylenetetrazol seizure model): inactive
CN(CC(=O)O)C(=N)NP(=O)(O)O  log2 fold change (binding, MIDAS equilibrium dialysis LC-MS; A2AR-BRIL thermostabilized; concentration not given; baseline: no-protein control): -0.113
COc1ncc(-c2nc3c(n2C(C)C)[C@H](c2ccc(Cl)cc2)N(c2cc(Cl)cn(C)c2=O)C3=O)c(OC)n1  best overall response (antileukemic activity, refers to: treatment failure, resistant disease; human, acute myeloid leukaemia; 20 to 30 mg, low-dose): 57.1%
CC[C@H](C)[C@@H]1NC(=O)[C@H](CCCNC(=N)N)NC(=O)C[C@@H](c2cccc3ccccc23)NC(=O)[C@@H]2CSSC[C@H](NC(=O)C[C@@H](c3cccc4ccccc34)NC(=O)[C@H](CCCNC(=N)N)NC(=O)[C@@H]3CCCN3C(=O)[C@@H]3CCCN3C1=O)C(=O)N[C@@H](Cc1ccccc1)C(=O)N1CCC[C@H]1C(=O)N[C@@H](CC(=O)O)C(=O)N[C@@H](CC(=O)O)C(=O)N[C@@H](Cc1ccccc1)C(=O)N2  EGFR expression (immunohistochemistry; Calu-3 NSCLC xenograft, athymic Foxn1 nude mouse; oral, 50 mg/kg; baseline: vehicle): decreased
CC[C@H](C)[C@H](NC(=O)[C@H](CCCNC(=N)N)NC(=O)[C@H](CO)NC(=O)[C@H](Cc1ccc(O)cc1)NC(=O)[C@@H](NC(=O)[C@@H](NC(=O)[C@H](C)NC(=O)CN)C(C)C)[C@@H](C)O)C(=O)N[C@@H](CO)C(=O)NCC(=O)N[C@@H](CCC(N)=O)C(=O)N[C@@H](Cc1ccc(O)cc1)C(=O)O  MIC (broth microdilution; 29213, Mueller-Hinton broth; 16 to 18 h, 37 °C): > 512 µM
CC[C@H](C)[C@@H]1NC(=O)[C@@H]2CCCN2C(=O)[C@H](CC(C)C)NC(=O)[C@H](CC(C)C)NC(=O)CNC(=O)[C@@H](NC(=O)[C@@H](NC(=O)[C@H](CC(=O)O)NC(=O)CNC(=O)[C@@H](NC(=O)[C@H](C)NC(=O)CNC(=O)[C@H](CCCCN)NC(=O)[C@H](CC(C)C)NC(=O)[C@H](CC(C)C)NC(=O)[C@H](CCCCN)NC(=O)CNC(=O)[C@@H](NC(=O)[C@@H](N)CC(C)C)C(C)C)C(C)C)C(C)C)CSSC[C@@H](C(=O)O)NC1=O  log2 fold change (RNA-seq, refers to: Prkab1; mouse, traumatic brain injury model, frontal cortex and hippocampus; dose not given; baseline: TBI alone): -0.791
CCCCC1(CCCC)CN(c2ccccc2)c2cc(SC)c(OCC(=O)N[C@@H](C(=O)NCC(=O)O)c3ccccc3)cc2S(=O)(=O)C1  serum HDL-C (refers to: HDL cholesterol; human, serum; 10 mg once daily, day 2): 51.1 mg/dL
CN1CCN(S(=O)(=O)c2cc([N+](=O)[O-])ccc2N(CCOS(C)(=O)=O)CCOS(C)(=O)=O)CC1  event-free survival (NSG mice, sample BC PDX; intraperitoneal, 25 mg/kg weekly x3): 39.4 days
[131I-].[Na+]  biochemical incomplete response (ATA response criteria; human, papillary thyroid cancer, nodal metastases; 3700 MBq): 13.3%
O=S(=O)(c1cccc2c(Cl)cccc12)N1CCCNCC1  IC50 (Plasmodium falciparum; 7G8): 6.31 µM
N=C(N)NCCC[C@H](NC(=O)CCCCCNC(=O)[C@H](CCCNC(=N)N)NC(=O)[C@H](CCCNC(=N)N)NC(=O)CCCCCNC(=O)[C@H](CCCNC(=N)N)NC(=O)[C@H](CCCNC(=N)N)NC(=O)CCCCCNC(=O)[C@H](CCCNC(=N)N)NC(=O)[C@H](CCCNC(=N)N)NC(=O)CCCCCNC(=O)[C@@H](N)CCCNC(=N)N)C(=O)NCCCCCC(=O)NCCC(=O)O  MIC (broth microdilution; 168, Mueller-Hinton broth; 16 to 18 h, 37 °C): 12 µM (≈ 22.9 µg/mL)
Clc1cc2c(cc1Cl)Oc1cc(Cl)c(Cl)cc1O2  N-acetyl-LTE4 level (female Sprague-Dawley rat, liver; dose not given; baseline: vehicle): 2.1 fold

A few entries again:
CCCCC1(CCCC)CN(c2ccccc2)c2cc(SC)c(OCC(=O)N[C@@H](C(=O)NCC(=O)O)c3ccccc3)cc2S(=O)(=O)C1  serum HDL-C (refers to: HDL cholesterol; human, serum; 10 mg once daily, day 2): 51.1 mg/dL
C[C@H]1O[C@@H](O[C@H]2CC[C@@]3(C)[C@@H](CC[C@]4(C)[C@@H]3C=C[C@]35OC[C@@]6(CCC(C)(C)C[C@H]63)[C@@H](O)C[C@]54C)[C@]2(C)CO)[C@H](O)[C@@H](O[C@@H]2O[C@H](CO)[C@@H](O)[C@H](O)[C@H]2O)[C@H]1O  mRNA level (refers to: FAS; ethanol-fed mice, hepatic SIRT1 knockdown (AAV8-TBG-SIRT1), liver; dose not given, high dose, unit not given; baseline: AAV8-TBG-Null ethanol group): 1.25 and 0.98 and 0.86 and 0.88 and 1 and 0.83
C[C@]1(O)CC[C@@]2(C)[C@@H](CC[C@@H]3[C@@H]2CC[C@]2(C)[C@@H]([N+](=O)[O-])CC[C@@H]32)C1  seizure protection (male NIH Swiss mice; i.p., dose not given, 15 min before test, pentylenetetrazol seizure model): inactive
CN(CC(=O)O)C(=N)NP(=O)(O)O  log2 fold change (binding, MIDAS equilibrium dialysis LC-MS; A2AR-BRIL thermostabilized; concentration not given; baseline: no-protein control): -0.113
